# Assay results from different studies.
# Protocols differ between the studies behind these lines. Several values in a cell are separate wells, animals, samples, runs or records. Numbers after ± are the reported error.
# HASPIN: Serine/threonine-protein kinase haspin (HASPIN, Homo sapiens, UniProt Q8TF76)
SMILES,target or system,assay,test system,setting,scale,measurement,value
CN(C)Cc1c[nH]c2cc(F)ccc12,"GTPase HRas, GDP-bound (HRAS, Homo sapiens, UniProt P01112, G12V)",ligand-detected 1H NMR,,concentration not given,,binding,no binding
Cc1n[nH]c(C)c1CCCOc1cc(OCCCCCCNCCOCCOCCn2cc(CNc3ccc(C(=O)O)cc3)nn2)cc(C(=O)O)c1,"Transthyretin (TTR, Homo sapiens, UniProt P02766)",fluorescent probe exclusion,human serum,"10 µM, 15:00:00",,probe binding remaining,6.94%
C=CC(=O)NC[C@H](NC(=O)[C@H](CC1CCCCC1)NC(=O)[C@H](CCC(N)=O)NC(C)=O)C(=O)N[C@@H](CC(C)C)C(=O)N[C@@H](Cc1ccccc1)C(=O)O,"Beta sliding clamp (Escherichia coli, UniProt P0A988)","binding, isothermal titration calorimetry",,22 °C,,-TΔS,2.1 kcal/mol
C=CC(=O)Nc1cc(-c2ccc(C(=O)N3CCCC(O)(CC)C3)cc2)ccc1F (stereo not shown),"DNA dC->dU-editing enzyme APOBEC-3B, C-terminal domain (Homo sapiens, UniProt Q9UH17)","covalent adduct, intact protein MS",,"3 h, 10-fold excess, 250 µM",,adducted protein,60% and 47%
O=C(N[C@@H]1c2ccccc2C[C@H]1N1CCCC1)c1ccc(-c2ccnc3[nH]ccc23)nc1,HASPIN,"binding, competition with immobilised ligand",,3 µM,,remaining binding,0.3%
CC[C@H](C)[C@H](NC(=O)[C@H](CCCNC(=N)N)NC(=O)[C@H](CCCNC(=N)N)NC(=O)[C@H](CC(C)C)NC(=O)[C@H](Cc1ccccc1)NC(=O)CNC(=O)CNC(=O)[C@@H](N)Cc1ccc(O)cc1)C(=O)N[C@@H](CCCNC(=N)N)C(=O)N1CCC[C@H]1C(=O)N[C@@H](CCCCN)C(=O)N[C@@H](CC(C)C)C(=O)N[C@@H](CCCCN)C(=O)O,"Probable G-protein coupled receptor 139 (GPR139, Homo sapiens, UniProt Q6DWJ6)","GαoB activation, agonist, BRET",HEK293T/17,40 µM,,Emax,61.9% and 48.6%
CC(C)[C@H]1NC(=O)C[C@H]2/C=C/CCSSC[C@@H](NC1=O)C(=O)N[C@H](Cc1cccc3ccccc13)C(=O)NCC(=O)O2,"Cyclin-dependent kinase 2, with cyclin A2 (CDK2, Homo sapiens, UniProt P24941)","enzyme activity, inhibitor",,10 µM,,inhibition,-6.4%
N[C@H](C(=O)N1CCCC1)C1CCN(c2nccc3c(-c4ncc(Cl)cc4Cl)cccc23)CC1,"Protein-arginine deiminase type-2 (PADI2, Homo sapiens, UniProt Q9Y2J8)",enzyme activity,,"0.2458 µM, high-affinity site, together with: Ca2+ 1.5 mM",,kcat,1.67 s⁻¹ and 1.52 s⁻¹
O=C1NC2(CC2)COc2ncc(F)cc2[C@H]2COCCN2c2ccn3ncc1c3n2,,,"Sprague-Dawley rat, male, blood","oral, 10 mg/kg/day, 4 weeks, end of recovery, subacute toxicity",,mean corpuscular haemoglobin,18.1 ± 0.7 pg
CC[C@H](C)[C@@H]1NC(=O)[C@H](CC(C)C)NC(=O)CNC(=O)[C@H](CCCNC(=N)N)NC(=O)[C@H](Cc2c[nH]c3ccccc23)NC(=O)[C@H](CCSC)NC(=O)[C@H](CO)NC(=O)[C@H](CCC(=O)O)NC(=O)[C@H](Cc2ccccc2)NC(=O)[C@H](CC(=O)O)NC(=O)[C@H]([C@@H](C)O)NC(=O)CNC(=O)[C@H](CCC(=O)O)NC(=O)[C@H]([C@@H](C)O)NC(=O)CNC(=O)[C@H](CC(=O)O)NC1=O,"E3 ubiquitin-protein ligase Mdm2 (MDM2, Homo sapiens, UniProt Q00987)","MDM2-ligand binding, inhibitor, AlphaLISA competition",,"0.04883 µM, together with: GST-tagged MDM2 ligand",lower = stronger inhibition,AlphaLISA signal,10500 a.u. and 10800 a.u. and 10200 a.u.
CN(C)CCCSC(=S)N1CCN(C(=O)/C=C/c2coc3ccccc3c2=O)CC1,"Nucleoprotein (N, Tomato spotted wilt virus, UniProt P25999, R94A)","binding, microscale thermophoresis",,31.25 µM,dose series,MST response,843 a.u.
C#CCCCCOc1ccc2c(c1)CCCN2C(=O)CCl,"Tumor protein D54 (Homo sapiens, UniProt O43399)","mass spectrometry profiling, measured: TPD52L2",H460 cell lysate,"100 µM over 10 µM, UniProt O43399",reference: high over low concentration,reactivity ratio,1.55
CN(C)[C@H]1C[C@@]23CC[C@@]4(O2)C(=CC[C@]2(C)[C@@H](c5ccc6ccncc6c5)CC[C@H]24)C=C3[C@@H](O)[C@@H]1O,"Serine/threonine-protein kinase/endoribonuclease IRE1 (ERN1, Homo sapiens, UniProt O75460)","ATP probe labelling, inhibitor, KiNativ profiling",,1 µM,,inhibition,-9.6%
CC[C@H](C)[C@@H]1NC(=O)[C@@H](CCCNC(=N)N)NC(=O)[C@@H](NC(=O)[C@@H](CC(C)C)NC(=O)[C@H](C)NC(=O)[C@H](C)NC(=O)[C@@H]2CCCN2C(=O)[C@@H](CC(C)C)NC(=O)[C@@H](NC(=O)[C@@H](CCCNC(=N)N)NC(=O)[C@@H](CC(C)C)NC(=O)[C@@H](CC(C)C)NC(=O)[C@@H](NC(=O)[C@@H](CCCNC(=N)N)NC(=O)[C@@H](CC(C)C)NC(=O)[C@@H](NC(=O)[C@@H](NC(=O)CNC(=O)[C@@H](CC(C)C)NC(=O)[C@@H](N)Cc2ccccc2)[C@@H](C)O)C(C)C)C(C)C)C(C)C)CSSC[C@@H](C(=O)O)NC(=O)[C@@H](CCCNC(=N)N)NC(=O)[C@@H](CCCNC(=N)N)NC(=O)[C@H](Cc2ccccc2)NC1=O,Staphylococcus aureus lipoteichoic acid,"lipoteichoic acid binding, BODIPY TR cadaverine displacement",,,,concentration at peak fluorescence,1 µM
Nc1ccn(C2OC(COP(=O)(O)OP(=O)(O)OP(=O)(O)O)C(O)C2(F)F)c(=O)n1 (stereo not shown),"pyrG (Escherichia coli, UniProt P0A7E5, C268A)",enzyme activity,,together with: UTP 0.05 mM,,Hill coefficient,1.7 ± 0.1
O=C1NC(=O)c2c1c1cc(F)c[n+]3c1c1c2c2cc(O)ccc2[n]1[Ru-4]312([N]=C=S)[S+]3CC[S+]1CC[S+]2CC3 (stereo not shown),HASPIN,enzyme activity,,"100 nM, human enzyme, together with: 10 µM ATP",reference: untreated,remaining activity,71%
CC(C)CC(O)(CC(C)C)c1cn(C(=O)N2CCCC2)nn1,"Dipeptidyl peptidase 9 (Dpp9, Mus musculus, UniProt Q8BVG4)","probe labelling, inhibitor, measured: Dpp9","mouse, brain","i.p., 0.8 mg/kg, 4 h, protein level","reference: treated over vehicle mice, lower = stronger inhibition",activity ratio-of-ratios,0.9
CS(C)(=O)=Nc1ccc(-c2ccc(-c3nc4cc(O[C@@H]5CO[C@H]6[C@@H]5OC[C@H]6O)[nH]c4cc3F)cc2)cc1,"Misshapen-like kinase 1 (MINK1, Homo sapiens, UniProt Q8N4C8)","enzyme activity, inhibitor",,10 µM,,inhibition,5%
CC1CN1c1cc(O)c2nc(N)sc2c1 (stereo not shown),thioredoxin,mass spectrometry,,"50 µM, 4 h, 37 °C, together with: thioredoxin 2 µM",,covalent adduct formation,< 10%

# A few entries again:
SMILES,target or system,assay,test system,setting,scale,measurement,value
CC[C@H](C)[C@H](NC(=O)[C@H](CCCNC(=N)N)NC(=O)[C@H](CCCNC(=N)N)NC(=O)[C@H](CC(C)C)NC(=O)[C@H](Cc1ccccc1)NC(=O)CNC(=O)CNC(=O)[C@@H](N)Cc1ccc(O)cc1)C(=O)N[C@@H](CCCNC(=N)N)C(=O)N1CCC[C@H]1C(=O)N[C@@H](CCCCN)C(=O)N[C@@H](CC(C)C)C(=O)N[C@@H](CCCCN)C(=O)O,"Probable G-protein coupled receptor 139 (GPR139, Homo sapiens, UniProt Q6DWJ6)","GαoB activation, agonist, BRET",HEK293T/17,40 µM,,Emax,61.9% and 48.6%
C=CC(=O)NC[C@H](NC(=O)[C@H](CC1CCCCC1)NC(=O)[C@H](CCC(N)=O)NC(C)=O)C(=O)N[C@@H](CC(C)C)C(=O)N[C@@H](Cc1ccccc1)C(=O)O,"Beta sliding clamp (Escherichia coli, UniProt P0A988)","binding, isothermal titration calorimetry",,22 °C,,-TΔS,2.1 kcal/mol
